Experimental data collected from several papers.
Parts stem from different laboratories: compare values within a part only. Changes are numbered by the printed parent chain.
Sequence of UniProt Q9FKM7 (whole entry, looked up): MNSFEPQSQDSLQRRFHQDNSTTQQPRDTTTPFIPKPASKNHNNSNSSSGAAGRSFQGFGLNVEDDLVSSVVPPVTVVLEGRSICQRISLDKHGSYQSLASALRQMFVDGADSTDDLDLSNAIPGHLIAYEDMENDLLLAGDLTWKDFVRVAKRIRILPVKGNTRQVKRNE
Sequence of UniProt Q9FGV1 (whole entry, looked up): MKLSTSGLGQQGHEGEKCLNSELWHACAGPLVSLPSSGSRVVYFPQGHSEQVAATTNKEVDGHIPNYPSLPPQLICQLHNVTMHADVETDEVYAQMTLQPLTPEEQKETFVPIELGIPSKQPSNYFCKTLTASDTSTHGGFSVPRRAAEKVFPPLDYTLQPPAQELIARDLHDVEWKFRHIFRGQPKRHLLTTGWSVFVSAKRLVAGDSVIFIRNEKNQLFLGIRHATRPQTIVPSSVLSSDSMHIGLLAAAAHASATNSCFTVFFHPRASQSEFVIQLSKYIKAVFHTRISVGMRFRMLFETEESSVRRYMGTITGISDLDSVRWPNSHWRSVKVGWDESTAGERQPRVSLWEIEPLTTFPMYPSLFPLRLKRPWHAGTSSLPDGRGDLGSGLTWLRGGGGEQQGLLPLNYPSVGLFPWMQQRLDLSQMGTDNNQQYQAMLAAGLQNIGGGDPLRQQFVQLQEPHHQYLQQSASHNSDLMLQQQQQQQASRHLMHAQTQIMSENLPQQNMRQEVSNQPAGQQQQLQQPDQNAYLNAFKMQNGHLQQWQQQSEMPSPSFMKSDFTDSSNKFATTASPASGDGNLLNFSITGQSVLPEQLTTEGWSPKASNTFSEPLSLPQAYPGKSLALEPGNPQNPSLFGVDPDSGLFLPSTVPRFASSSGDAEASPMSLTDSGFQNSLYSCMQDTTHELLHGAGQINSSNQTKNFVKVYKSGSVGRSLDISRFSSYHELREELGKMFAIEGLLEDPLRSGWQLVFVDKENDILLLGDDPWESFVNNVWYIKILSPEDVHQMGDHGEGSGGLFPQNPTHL
Sequence of UniProt Q8L7G0 (whole entry, looked up): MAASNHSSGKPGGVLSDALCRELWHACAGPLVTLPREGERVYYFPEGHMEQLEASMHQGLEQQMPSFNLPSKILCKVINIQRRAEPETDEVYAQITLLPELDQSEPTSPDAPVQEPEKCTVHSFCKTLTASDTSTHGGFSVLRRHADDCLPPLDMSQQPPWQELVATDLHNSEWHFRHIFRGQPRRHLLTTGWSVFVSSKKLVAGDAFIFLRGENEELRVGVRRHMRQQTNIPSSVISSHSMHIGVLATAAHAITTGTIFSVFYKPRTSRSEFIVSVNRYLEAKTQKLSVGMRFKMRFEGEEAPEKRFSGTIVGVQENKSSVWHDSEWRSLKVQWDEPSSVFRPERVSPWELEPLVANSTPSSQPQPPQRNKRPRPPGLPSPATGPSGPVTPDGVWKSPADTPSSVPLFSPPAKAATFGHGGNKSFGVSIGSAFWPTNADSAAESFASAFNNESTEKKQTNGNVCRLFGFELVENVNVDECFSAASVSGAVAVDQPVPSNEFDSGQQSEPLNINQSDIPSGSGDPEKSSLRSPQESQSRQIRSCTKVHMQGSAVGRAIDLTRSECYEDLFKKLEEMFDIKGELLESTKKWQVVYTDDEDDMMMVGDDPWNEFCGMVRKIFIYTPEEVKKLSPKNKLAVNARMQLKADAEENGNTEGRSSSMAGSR
Sequence of UniProt Q9C5X0 (whole entry, looked up): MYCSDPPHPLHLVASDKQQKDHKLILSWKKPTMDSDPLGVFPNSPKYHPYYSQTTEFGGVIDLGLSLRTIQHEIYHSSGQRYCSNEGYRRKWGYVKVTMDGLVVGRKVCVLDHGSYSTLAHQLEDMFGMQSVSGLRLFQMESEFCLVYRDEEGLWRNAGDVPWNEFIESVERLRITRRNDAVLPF
Sequence of UniProt O24409 (whole entry, looked up): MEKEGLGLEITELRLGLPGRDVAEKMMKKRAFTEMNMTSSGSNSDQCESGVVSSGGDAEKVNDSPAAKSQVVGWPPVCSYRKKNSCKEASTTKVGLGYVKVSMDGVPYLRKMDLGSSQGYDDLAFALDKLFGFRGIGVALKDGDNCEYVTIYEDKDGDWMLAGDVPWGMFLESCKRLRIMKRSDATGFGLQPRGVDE
Sequence of UniProt Q9ZTX8 (whole entry, looked up): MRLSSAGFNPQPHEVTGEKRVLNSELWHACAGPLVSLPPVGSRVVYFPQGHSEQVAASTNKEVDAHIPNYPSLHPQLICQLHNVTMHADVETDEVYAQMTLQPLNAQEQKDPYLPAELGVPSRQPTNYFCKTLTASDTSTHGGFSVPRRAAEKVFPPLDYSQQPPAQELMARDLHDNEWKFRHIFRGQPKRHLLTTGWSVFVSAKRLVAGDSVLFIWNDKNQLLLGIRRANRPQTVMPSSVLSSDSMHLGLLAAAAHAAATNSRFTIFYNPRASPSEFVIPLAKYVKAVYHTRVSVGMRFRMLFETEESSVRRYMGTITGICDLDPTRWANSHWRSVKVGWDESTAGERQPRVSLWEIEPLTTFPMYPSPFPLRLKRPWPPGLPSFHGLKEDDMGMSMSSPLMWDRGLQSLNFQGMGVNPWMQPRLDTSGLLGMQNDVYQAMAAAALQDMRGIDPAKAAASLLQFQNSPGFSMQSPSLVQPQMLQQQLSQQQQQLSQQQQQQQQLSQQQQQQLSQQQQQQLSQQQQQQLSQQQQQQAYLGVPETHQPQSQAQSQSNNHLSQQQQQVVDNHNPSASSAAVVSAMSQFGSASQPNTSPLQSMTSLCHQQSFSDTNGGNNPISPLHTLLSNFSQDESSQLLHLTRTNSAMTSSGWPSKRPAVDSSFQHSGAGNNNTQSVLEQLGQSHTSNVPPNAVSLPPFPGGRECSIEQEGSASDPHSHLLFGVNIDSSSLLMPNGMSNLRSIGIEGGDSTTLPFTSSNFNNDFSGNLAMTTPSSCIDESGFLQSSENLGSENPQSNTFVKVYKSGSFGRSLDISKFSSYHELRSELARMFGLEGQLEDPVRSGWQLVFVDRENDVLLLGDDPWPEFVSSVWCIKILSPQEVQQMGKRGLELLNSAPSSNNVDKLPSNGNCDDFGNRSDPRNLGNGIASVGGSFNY

Block 1 — Molecule: B1 (IAA11); technique: two-hybrid; setting: weak activation fusion; relative to: out of 4 tests; reading: higher = firmer interaction
T1: itself; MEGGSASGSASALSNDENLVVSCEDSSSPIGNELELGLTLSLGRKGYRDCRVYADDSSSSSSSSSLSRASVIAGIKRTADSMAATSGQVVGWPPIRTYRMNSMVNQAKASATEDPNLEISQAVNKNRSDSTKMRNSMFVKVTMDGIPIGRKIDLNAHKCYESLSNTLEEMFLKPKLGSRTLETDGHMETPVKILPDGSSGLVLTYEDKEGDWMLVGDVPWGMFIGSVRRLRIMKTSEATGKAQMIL
B1: IAA11 (Arabidopsis thaliana, UniProt Q38829); chain MEGGSASGSASALSNDENLVVSCEDSSSPIGNELELGLTLSLGRKGYRDCRVYADDSSSSSSSSSLSRASVIAGIKRTADSMAATSGQVVGWPPIRTYRMNSMVNQAKASATEDPNLEISQAVNKNRSDSTKMRNSMFVKVTMDGIPIGRKIDLNAHKCYESLSNTLEEMFLKPKLGSRTLETDGHMETPVKILPDGSSGLVLTYEDKEGDWMLVGDVPWGMFIGSVRRLRIMKTSEATGKAQMIL
partner	positive tests
ARF1 538-665 (Arabidopsis thaliana, UniProt Q8L7G0)	0
IAA33 (Arabidopsis thaliana, UniProt Q9FKM7)	0
IAA19 (Arabidopsis thaliana, UniProt O24409)	2
ARF6 790-935 (Arabidopsis thaliana, UniProt Q9ZTX8)	3
IAA34 (Arabidopsis thaliana, UniProt Q9C5X0)	1
T1, itself	0
ARF8 699-811 (Arabidopsis thaliana, UniProt Q9FGV1)	0

Block 2 — technique: RNA Bind-n-Seq; molecule type: RNA; matrix: in vitro; tested at: 365 nM; relative to: no-protein control; reading: higher = stronger binding
Target: RNA binding protein fox-1 homolog 2, RRM domain, GST-SBP tag (RBFOX2, Homo sapiens, UniProt O43251-10, residues 100-194)
Setting: natural RNA segment, single round, ends assumed
Shared flanks, not repeated: GGGAGUUCUACAGUCCGACGAUC … UGGAAUUCUCGGGUGCCAA
Target sequence (chain): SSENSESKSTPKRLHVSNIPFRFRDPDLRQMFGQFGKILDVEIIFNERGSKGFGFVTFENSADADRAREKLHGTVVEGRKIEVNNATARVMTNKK
Oligonucleotide	RBNS enrichment (R)
CUGCUCGGAGCUCAGUGCCGCAGCAUGGCUGUGGUGGACGCGGGAAACAACGGGAAAGUUCUUGACAGAGUCUGUGUCCGCUCAGUCCCUGCACUUUUCCUUUCCAAAUG	0.262
AGCACUUACCAGCCGAACGUGGAACAGUAUCACAAAAGAUUCCAUCUCCCAACGAUUUCAGAACUCUGAGCUCAGAGAGACUCCAGAUUUUAAAAAAUAAUUUGAGUGCU	0.357
CCCCCUCACUUCCCAAGACAACCCCCAGCUUCAGGUCCUCAUGGGGAGGGGAGGGCACGUUCUUGACACAUGGGAACUUCGCUCAGGAGGGCCUCCCCUUCCCCUCUCCC	0.707
CAGGAGAAGAAAUAACUAUCUUUUCAUUUGGGAGAGGCUAAAGAUGUUUUCAGCUACUUGCAAAUCUUCCUGGUCGAAAGUUAGUAGGAUAUGCCUGCUCUUUGGCCUGA	0.314
AAUCUCUAUGUAUAUUCUAUUUUAUUAAAUUAAUUGAAUCUAGUAUAUGCUGGAUGUACGACAUUUUGUGACUGAAGAGACUUGGUUCCUUCUUCUUUUAUGUGUCUCAG	0.538
GAACUUAAAUAGAAGGCAACAGGAAAUUUAUAUAGGAACUAUUUUCAUUCCACUUGUGUAAGUUAAGUCUUGACUCUUUCAAAUGCAAAAAACCUAUUUUAUGCUUUGUU	0.554
AGCGCUGUGCUACCAGUAGCUUUGGGGUUUUGGAAGCAGACACACCAAAGCCGAGCAUCAUAGAGAAUGAAUCCCUCUGGAAACACUUACUCUCAGAAAAUGACACUCUU	0.284
UGGAAGGUUGACCUACUUGGAUCUUGGCAUGCACCCACCUAACCCACUUUCUCAAGAACAAGAACCUAGAAUGAAUAUCCAAGCACCUCGAGCUAUGCAACCUCUGUUCU	1.22

Block 3 — technique: DHFR PCA, deep sequencing; matrix: yeast; added: (+)-ABA 200 µM; relative to: wild-type fitted maximum; reading: higher = stronger binding
Target: ABI1, truncated, D143A, DHFR fusion (Arabidopsis thaliana)
Setting: methotrexate growth selection, single substitutions
Starting sequence: PYL1, truncated, DHFR fusion (Arabidopsis thaliana); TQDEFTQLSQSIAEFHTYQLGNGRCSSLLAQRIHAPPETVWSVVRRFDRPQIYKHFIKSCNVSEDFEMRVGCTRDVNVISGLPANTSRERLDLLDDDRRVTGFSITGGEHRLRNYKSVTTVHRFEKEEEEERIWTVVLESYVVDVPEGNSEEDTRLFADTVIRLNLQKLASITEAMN
Change	relative binding score
E127M	104%
G71Q	45.2%
F66W	96.2%
G108P	19.1%
W134C	106%
Y141K	-5.25%
S87Q	4.33%
S26W	89.4%

Other studies, line by line — starting sequence: viral docking peptide; CKVKRKLFGSENI
Change	target	assay	test system	setting	scale	endpoint	value
AKVKRKLFGSENI [C1A]	CCNB1, cyclin fold, Cln2 fusion (human)	yeast growth competition, sequencing	yeast	weak parent motif	relative to: not given, higher = stronger binding	normalised enrichment score	0.461

A few entries again (block 2):
Oligonucleotide	RBNS enrichment (R)
AGCGCUGUGCUACCAGUAGCUUUGGGGUUUUGGAAGCAGACACACCAAAGCCGAGCAUCAUAGAGAAUGAAUCCCUCUGGAAACACUUACUCUCAGAAAAUGACACUCUU	0.284
AAUCUCUAUGUAUAUUCUAUUUUAUUAAAUUAAUUGAAUCUAGUAUAUGCUGGAUGUACGACAUUUUGUGACUGAAGAGACUUGGUUCCUUCUUCUUUUAUGUGUCUCAG	0.538
CAGGAGAAGAAAUAACUAUCUUUUCAUUUGGGAGAGGCUAAAGAUGUUUUCAGCUACUUGCAAAUCUUCCUGGUCGAAAGUUAGUAGGAUAUGCCUGCUCUUUGGCCUGA	0.314
